Results of several laboratories.
Protocols differ between the studies behind these lines. ± gives the spread as reported.

Compound | cell line | assay | setting | scale | quantity | value
CC(=O)O[C@H]1C(=O)[C@@]2(C)[C@H]([C@H](OC(=O)c3ccccc3)[C@]3(O)C[C@H](OC(=O)[C@H](O)[C@@H](NC(=O)c4ccccc4)c4ccccc4)C(C)=C1C3(C)C)[C@]1(OC(C)=O)CO[C@@H]1C[C@@H]2O | PC-3/TxR | MTS |  | reference: IC50 PC-3/TxR over PC-3 | resistance index | 389
NC(=O)c1cccc2c1O/C(=C\c1ccc(C(=O)N3CCN(c4nc5ccccc5[nH]4)CC3)s1)C2=O | SUM149 | cellular PARylation, inhibitor, Western blot | with: H2O2 |  | PARylation | inhibited
C[C@H]1[C@@H](O)O[C@@H]2O[C@@]3(C)CC[C@H]4[C@H](C)CC[C@@H]1[C@@]24OO3 | THP-1 | annexin V/PI flow cytometry, measured: annexin V-/PI- | 0.4 µM, 24 h |  | viable cells | 96.4%
CC/C(=N\NC(=O)C(C)Nc1ccccc1)c1ccc(O)c(C)c1O (stereo not drawn) | SK-OV-3 | Western blot, measured: TAZ | 10 µM, 6 h, 3D gellan gum culture, unit not given | reference: β-actin | protein level | 1.8 ± 0.31
Cn1cc(-c2ccc(-c3cncc(Cl)c3N3CCC4(CCNC4=O)CC3)cc2)cn1 | COLO 205 | gene expression, microarray, measured: ITPR1 mRNA | concentration not given, 2 h | reference: untreated cells | log2 fold change | 2.43
O=C(/C=C/C=C/C=C/C1CCCCC1)NC1=C[C@@](O)(/C=C/C=C/C=C/C(=O)NC2=C(O)CCC2=O)[C@@H]2O[C@@H]2C1=O | HCC44 | cell growth, CellTiter-Glo | 78 h |  | GI50 | 24600 nM
CN1CCN(CCOc2cc(OC3CCOCC3)c3c(Nc4c(Cl)ccc5c4OCO5)ncnc3c2)CC1 | HD-MB03 |  | 168 h |  | IC50 | inactive
Cc1cc(Nc2ncc(Cl)c(Nc3ccccc3S(=O)(=O)C(C)C)n2)c(OC(C)C)cc1C1CCNCC1 | CLB-GE | phosphoproteomics LC-MS/MS, measured: HELZ phosphorylation | 200 nM, 60 min | reference: untreated | log2 fold change | -1.59
Nc1nc2[nH]cc(CCc3ccc(C(=O)N[C@@H](CCC(=O)O)C(=O)O)cc3)c2c(=O)[nH]1 | HD-MB03 | cell growth | 168 h, single agent |  | IC50 | 57.7 nM
CCn1cc(-c2cc(Cn3ccoc3=N)cc3c2CCN([C@@H](C)c2cc(OC)ccn2)C3=O)c(C(F)(F)F)n1 | NCI-H596 | cell growth, inhibitor | 120 h |  | EC50 | 16.2 nM
CC(C)=CCC[C@@]1(C)C(CC[C@H]2[C@]3(C)CC[C@H](O)C(C)(C)O[C@H]3CC[C@@]2(C)O)=C(C)CC[C@H]1O | KB-C2 (P-gp overexpressing) | drug efflux | 10 µM, 30 min |  | intracellular [3H]-paclitaxel remaining | 82.7%
c1ccc2[nH]ccc2c1 | HCT-8 | RNA-seq, measured: FITM1 | concentration not given |  | mRNA level, LS mean | 2.94 counts per million
CC[C@@]1(O)C(=O)OCc2c1cc1n(c2=O)Cc2cc3c(CN(C)C)c(O)ccc3nc2-1 | primary rat hippocampal/cortical neuron-glia cultures |  | 1 µM, with: 1 µM α-synuclein oligomers |  | reversal of trafficking deficit | 9.63%
O=c1[nH]nc(OCCCc2ccc(Cl)cc2)c(NCc2cccnc2)c1Br | HEK-293T | RNA-seq GSEA, measured: Hallmark apoptosis | concentration not given | direction not given | normalized enrichment score | 1.42
CCn1cc(-c2cc(Cn3ccnc3)cc3c2CCN([C@H](c2cc(OC)ccn2)C2CC2)C3=O)c(C(F)(F)F)n1 | HGC-27 | cell growth, inhibitor | 120 h |  | EC50 | 14900 nM
O=C(NOC[C@H](O)CO)c1ccc(F)c(F)c1Nc1ccc(I)cc1F | A-375 |  | 0.625 µM, 72 h |  | viability | 14.2%
Cc1cccc(-c2[nH]c(CNc3ccccc3F)nc2-c2ccc3ncnn3c2)n1 | MM1.S pomalidomide-resistant | XTT | 5 µM | reference: untreated | viability | 14%
CC[C@]1(O)C[C@H]2CN(CCc3c([nH]c4ccccc34)[C@@](C(=O)OC)(c3cc4c(cc3OC)N(C=O)[C@H]3[C@@](O)(C(=O)OC)[C@H](OC(C)=O)[C@]5(CC)C=CCN6CC[C@]43[C@@H]65)C2)C1 | HD-MB03 | cell growth | 168 h, DMSO |  | IC50 | 19.1 nM
COC(=O)C1CCN(C(=O)Cc2ccc(NCc3cnc4nc(N)nc(N)c4n3)cc2)CC1 | 786-O | high-content imaging, measured: MitoTracker Red uptake | 10 µM |  | mitochondrial toxicity | -2.16 ± 12.1%
COc1cc2nccc(Oc3ccc(NC(=O)C4(C(=O)Nc5ccc(F)cc5)CC4)cc3)c2cc1OC | HD-MB03 |  | 168 h |  | IC50 | inactive
COc1cnc2cccc(N3CCc4c(cc(Cn5ccnc5C)cc4-c4cn(C)nc4C(F)(F)F)C3=O)c2c1 | BICR56 | cell growth | 120 h |  | EC50 | > 30000 nM

Excerpt of the above:
Compound | cell line | assay | setting | scale | quantity | value
CC(C)=CCC[C@@]1(C)C(CC[C@H]2[C@]3(C)CC[C@H](O)C(C)(C)O[C@H]3CC[C@@]2(C)O)=C(C)CC[C@H]1O | KB-C2 (P-gp overexpressing) | drug efflux | 10 µM, 30 min |  | intracellular [3H]-paclitaxel remaining | 82.7%
c1ccc2[nH]ccc2c1 | HCT-8 | RNA-seq, measured: FITM1 | concentration not given |  | mRNA level, LS mean | 2.94 counts per million
CC[C@@]1(O)C(=O)OCc2c1cc1n(c2=O)Cc2cc3c(CN(C)C)c(O)ccc3nc2-1 | primary rat hippocampal/cortical neuron-glia cultures |  | 1 µM, with: 1 µM α-synuclein oligomers |  | reversal of trafficking deficit | 9.63%
